# Assay results from different studies.
# Compare with care: the assays were run in different laboratories. ± marks the error that the study gave.
Structure (SMILES),host,matrix,route,dose,time,notes,Tmax [h]
Cc1ccccc1-c1cc(N2CC[N+](C)([O-])CC2)ncc1N(C)C(=O)C(C)(C)c1cc(C(F)(F)F)cc(C(F)(F)F)c1,human,plasma,,dose not given,,,~5
CCCCCCCOc1ccc(CC[C@](N)(CO)COP(=O)(O)O)cc1C(F)(F)F,healthy human males,plasma,oral,0.125 to 0.75 mg,day 1,median across doses,12
CCCCCCCCCC(O)CC(=O)CCc1ccc(O)c(OC)c1 (stereo not drawn),healthy Indonesian humans,plasma,oral,2 g red ginger suspension,,single dose,0.633
CC(=O)N[C@H](CC(=O)O)C(=O)N[C@H](Cc1c[nH]c2ccccc12)C(=O)N[C@H](Cc1ccccc1)C(=O)N[C@H](CCCCN)C(=O)N[C@H](C)C(=O)N[C@H](Cc1ccccc1)C(=O)N[C@H](Cc1ccc(O)cc1)C(=O)N[C@H](CC(=O)O)C(=O)N[C@H](CCCCN)C(=O)N[C@@H](C(=O)N[C@H](C)C(=O)N[C@H](CCC(=O)O)C(=O)N[C@H](CCCCN)C(=O)N[C@H](Cc1ccccc1)C(=O)N[C@H](CCCCN)C(=O)N[C@H](CCC(=O)O)C(=O)N[C@H](C)C(=O)N[C@H](Cc1ccccc1)C(N)=O)C(C)C,"human, statin-treated high-risk CHD, both sexes",plasma,oral,500 mg daily,day 13,"median, detected subjects only",1.27
Cc1nc(C)c(C=[N+]([O-])C(C)(C)C)nc1C,"healthy Chinese human, both sexes",serum,oral,600 mg twice daily,7 days,,3.38
CCc1c2c(nc3ccc(O)cc13)-c1cc3c(c(=O)n1C2)COC(=O)[C@]3(O)CC,human patients,plasma,intravenous,32 mg/m^2 of parent drug,,,0.94
CC12CC(c3ccc(S(C)(=O)=O)cc3)C3=C4CCC(=O)C=C4CCC3C1CCC2(O)C(F)(F)C(F)(F)F (stereo not drawn),"human, fasted",plasma,oral,5 mg,,"[14C]-labelled, single dose, median",1
O=C(CCc1ccc(CNC(C(=O)OC2CCCC2)C2CCCCC2)cn1)NO (stereo not drawn),human,plasma,oral,40 mg,,"single dose, median",0.5
O=C(O[C@@H]1Cc2c(O)cc(O)cc2O[C@@H]1c1cc(O)c(O)c(O)c1)c1cc(O)c(O)c(O)c1,"human, male",plasma,oral,135 mg,,catechin-rich beverage,1.4 ± 0.32
CC(C)(O)c1ncc([S@](N)(=O)=NC(=O)Nc2c3c(cc4c2CCC4)CCC3)s1,"healthy human, fasted",,oral,100 mg single dose,,spray-dried dispersion,3
Cn1c(=O)oc2ccc(-c3ccc(CC(C#N)NC(=O)C4CNCCCO4)c(F)c3)cc21 (stereo not drawn),"human, fed",plasma,,40 mg single dose,,median,4
CN1CCC[C@]1(C)/C=C/S(=O)(=O)NC(=O)Nc1c2c(cc3c1CCC3)CCC2,"human, fasted",plasma,oral,25 to 400 mg,,"single dose, median",1 to 1.5
CCCCCCCCCCCCCCCC(=O)N[C@@H](CCCCN)C(=O)N[C@@H](CCCCN)C(=O)N[C@@H](CO)C(=O)N[C@@H](CCCNC(=N)N)C(=O)N[C@@H](C)C(=O)N[C@@H](CC(C)C)C(=O)N[C@@H](Cc1ccccc1)C(N)=O,"human, PCI patients",plasma,intravenous,dose not given,,end of infusion,2
O=C(CCc1ccc(CNC(C(=O)O)C2CCCCC2)cn1)NO (stereo not drawn),human,plasma,oral,40 mg once daily,day 1,median,1.01
CCc1cc(Nc2nc(-c3ccc(-n4cnc(C)c4)c(F)c3)cs2)c(C)cc1C,"human, both sexes",plasma,oral,400 mg,day 1,"multiple dose, geometric mean",5

# For quick reference, copied from above:
Structure (SMILES),host,matrix,route,dose,time,notes,Tmax [h]
CCc1cc(Nc2nc(-c3ccc(-n4cnc(C)c4)c(F)c3)cs2)c(C)cc1C,"human, both sexes",plasma,oral,400 mg,day 1,"multiple dose, geometric mean",5
